Experimental data collected from several papers.
Protocols differ between the studies behind these lines. “And” joins repeats or separate records; there may be more than shown. ± gives the spread as reported.
GLP1R: Glucagon-like peptide 1 receptor (GLP1R, Homo sapiens, UniProt P43220)
TOP2A: DNA topoisomerase 2-alpha (TOP2A, Homo sapiens, UniProt P11388)
UniProt P11388, sequence (whole entry, looked up): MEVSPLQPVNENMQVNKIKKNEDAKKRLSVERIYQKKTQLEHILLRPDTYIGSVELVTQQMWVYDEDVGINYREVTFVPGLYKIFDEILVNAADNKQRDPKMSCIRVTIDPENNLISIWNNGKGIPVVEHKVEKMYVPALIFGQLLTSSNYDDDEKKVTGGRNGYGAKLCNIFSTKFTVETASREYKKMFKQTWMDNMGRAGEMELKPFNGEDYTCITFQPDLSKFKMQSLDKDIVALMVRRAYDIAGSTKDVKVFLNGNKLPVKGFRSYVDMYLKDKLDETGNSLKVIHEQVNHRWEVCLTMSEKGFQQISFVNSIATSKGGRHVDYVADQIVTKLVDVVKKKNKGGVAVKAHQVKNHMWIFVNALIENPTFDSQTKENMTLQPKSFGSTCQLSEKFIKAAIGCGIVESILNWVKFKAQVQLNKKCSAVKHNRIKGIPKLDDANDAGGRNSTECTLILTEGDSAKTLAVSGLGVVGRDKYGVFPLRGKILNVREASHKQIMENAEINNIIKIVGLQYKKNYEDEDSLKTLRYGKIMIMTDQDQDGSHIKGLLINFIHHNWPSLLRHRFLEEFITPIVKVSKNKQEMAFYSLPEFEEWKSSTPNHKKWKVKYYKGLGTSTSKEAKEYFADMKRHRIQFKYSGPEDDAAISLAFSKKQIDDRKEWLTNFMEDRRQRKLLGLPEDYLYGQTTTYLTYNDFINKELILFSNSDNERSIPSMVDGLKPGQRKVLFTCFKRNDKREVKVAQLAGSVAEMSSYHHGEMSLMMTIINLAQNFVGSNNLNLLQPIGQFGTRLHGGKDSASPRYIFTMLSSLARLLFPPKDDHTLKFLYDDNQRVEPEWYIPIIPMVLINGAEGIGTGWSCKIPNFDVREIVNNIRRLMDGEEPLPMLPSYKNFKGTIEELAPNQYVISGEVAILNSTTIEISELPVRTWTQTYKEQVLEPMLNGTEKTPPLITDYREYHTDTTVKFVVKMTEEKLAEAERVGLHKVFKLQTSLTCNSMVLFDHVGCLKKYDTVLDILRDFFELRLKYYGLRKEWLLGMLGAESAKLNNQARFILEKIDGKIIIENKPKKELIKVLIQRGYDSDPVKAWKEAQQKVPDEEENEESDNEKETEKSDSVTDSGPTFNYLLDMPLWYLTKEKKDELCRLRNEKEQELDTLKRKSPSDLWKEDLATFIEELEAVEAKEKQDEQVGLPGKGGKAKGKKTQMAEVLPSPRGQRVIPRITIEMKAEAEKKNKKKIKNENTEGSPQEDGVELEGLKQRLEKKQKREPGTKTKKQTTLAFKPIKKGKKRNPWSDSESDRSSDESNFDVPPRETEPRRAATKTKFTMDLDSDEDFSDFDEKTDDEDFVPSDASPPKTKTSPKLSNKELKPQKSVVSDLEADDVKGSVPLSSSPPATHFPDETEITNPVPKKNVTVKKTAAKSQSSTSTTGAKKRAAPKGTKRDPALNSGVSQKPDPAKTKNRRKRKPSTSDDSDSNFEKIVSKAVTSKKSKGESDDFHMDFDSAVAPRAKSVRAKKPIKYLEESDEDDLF
UniProt P02769, sequence (whole entry, unmodified, looked up): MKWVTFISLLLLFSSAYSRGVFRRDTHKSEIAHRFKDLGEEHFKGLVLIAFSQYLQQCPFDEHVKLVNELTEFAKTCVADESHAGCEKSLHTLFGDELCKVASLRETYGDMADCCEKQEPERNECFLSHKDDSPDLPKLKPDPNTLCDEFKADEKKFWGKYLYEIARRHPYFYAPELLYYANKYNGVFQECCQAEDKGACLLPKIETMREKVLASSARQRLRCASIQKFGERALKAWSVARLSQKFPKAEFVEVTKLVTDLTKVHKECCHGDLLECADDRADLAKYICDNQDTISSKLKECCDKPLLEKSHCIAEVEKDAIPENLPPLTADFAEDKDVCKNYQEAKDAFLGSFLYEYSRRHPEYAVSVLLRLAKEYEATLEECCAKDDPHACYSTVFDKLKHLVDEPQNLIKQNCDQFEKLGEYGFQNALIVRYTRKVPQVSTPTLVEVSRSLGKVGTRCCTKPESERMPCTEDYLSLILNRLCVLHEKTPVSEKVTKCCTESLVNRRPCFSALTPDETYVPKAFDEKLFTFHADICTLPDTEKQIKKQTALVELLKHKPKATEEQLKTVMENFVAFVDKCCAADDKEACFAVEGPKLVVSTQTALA
UniProt Q704Y3, sequence (whole entry, unmodified, looked up): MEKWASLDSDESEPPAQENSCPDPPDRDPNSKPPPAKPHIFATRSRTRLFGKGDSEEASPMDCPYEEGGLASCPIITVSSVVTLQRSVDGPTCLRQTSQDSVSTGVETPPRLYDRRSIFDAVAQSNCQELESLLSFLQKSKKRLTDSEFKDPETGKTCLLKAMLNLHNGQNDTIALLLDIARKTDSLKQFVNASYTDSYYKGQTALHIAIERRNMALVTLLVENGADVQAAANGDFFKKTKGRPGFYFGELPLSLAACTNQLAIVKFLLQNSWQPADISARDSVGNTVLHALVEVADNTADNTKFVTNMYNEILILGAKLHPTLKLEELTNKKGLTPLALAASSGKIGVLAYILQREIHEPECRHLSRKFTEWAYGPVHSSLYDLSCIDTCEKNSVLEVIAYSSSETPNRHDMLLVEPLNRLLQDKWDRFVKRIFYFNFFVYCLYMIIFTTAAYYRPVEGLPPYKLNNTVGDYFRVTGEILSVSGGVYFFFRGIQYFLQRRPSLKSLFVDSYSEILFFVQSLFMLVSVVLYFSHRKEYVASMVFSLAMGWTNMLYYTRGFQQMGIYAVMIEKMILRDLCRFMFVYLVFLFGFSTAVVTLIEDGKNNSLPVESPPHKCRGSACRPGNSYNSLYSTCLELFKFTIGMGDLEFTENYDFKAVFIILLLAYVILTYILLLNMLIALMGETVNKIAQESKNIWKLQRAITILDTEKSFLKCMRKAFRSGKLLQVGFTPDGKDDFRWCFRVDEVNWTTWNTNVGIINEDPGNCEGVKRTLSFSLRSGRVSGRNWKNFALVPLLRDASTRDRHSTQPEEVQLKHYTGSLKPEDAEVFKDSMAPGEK
UniProt Q9Y3R4, sequence (whole entry, looked up): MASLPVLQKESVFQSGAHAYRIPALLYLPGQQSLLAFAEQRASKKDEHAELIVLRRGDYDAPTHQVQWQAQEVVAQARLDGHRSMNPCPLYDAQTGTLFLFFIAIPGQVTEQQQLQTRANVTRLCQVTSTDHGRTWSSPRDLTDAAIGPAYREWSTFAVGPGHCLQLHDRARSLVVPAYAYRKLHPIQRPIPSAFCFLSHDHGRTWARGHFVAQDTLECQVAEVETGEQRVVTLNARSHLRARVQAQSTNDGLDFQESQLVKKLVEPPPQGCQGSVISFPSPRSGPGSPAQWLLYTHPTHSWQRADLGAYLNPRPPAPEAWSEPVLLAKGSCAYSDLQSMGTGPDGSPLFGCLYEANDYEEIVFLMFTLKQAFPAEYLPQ
UniProt P63079, sequence (whole entry, looked up): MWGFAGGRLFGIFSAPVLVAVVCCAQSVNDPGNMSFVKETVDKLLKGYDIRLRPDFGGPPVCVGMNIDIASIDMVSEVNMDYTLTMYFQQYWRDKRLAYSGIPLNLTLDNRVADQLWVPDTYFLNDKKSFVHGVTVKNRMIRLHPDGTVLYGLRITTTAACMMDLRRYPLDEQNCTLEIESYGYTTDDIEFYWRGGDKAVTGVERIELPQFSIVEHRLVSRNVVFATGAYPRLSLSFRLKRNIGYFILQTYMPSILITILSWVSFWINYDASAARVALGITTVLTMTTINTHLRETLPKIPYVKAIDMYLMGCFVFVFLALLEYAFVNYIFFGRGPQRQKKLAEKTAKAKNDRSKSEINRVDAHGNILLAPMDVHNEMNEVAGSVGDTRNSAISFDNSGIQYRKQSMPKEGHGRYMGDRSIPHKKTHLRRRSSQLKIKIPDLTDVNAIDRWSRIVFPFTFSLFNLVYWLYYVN
UniProt P03146, sequence (1-149, looked up): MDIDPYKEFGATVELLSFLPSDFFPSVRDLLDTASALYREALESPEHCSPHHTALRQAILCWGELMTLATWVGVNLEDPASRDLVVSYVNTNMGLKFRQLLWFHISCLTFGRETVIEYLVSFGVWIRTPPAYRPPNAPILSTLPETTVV
UniProt P52564, sequence (whole entry, looked up): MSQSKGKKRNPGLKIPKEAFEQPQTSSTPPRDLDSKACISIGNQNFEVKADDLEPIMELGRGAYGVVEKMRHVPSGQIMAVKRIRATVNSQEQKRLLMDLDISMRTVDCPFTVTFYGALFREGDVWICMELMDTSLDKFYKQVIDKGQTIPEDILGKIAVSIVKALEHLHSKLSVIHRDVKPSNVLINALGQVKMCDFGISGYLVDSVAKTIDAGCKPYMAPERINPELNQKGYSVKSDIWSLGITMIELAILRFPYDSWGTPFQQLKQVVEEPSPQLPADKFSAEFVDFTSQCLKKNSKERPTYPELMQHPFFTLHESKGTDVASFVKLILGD
UniProt P30191, sequence (whole entry, looked up): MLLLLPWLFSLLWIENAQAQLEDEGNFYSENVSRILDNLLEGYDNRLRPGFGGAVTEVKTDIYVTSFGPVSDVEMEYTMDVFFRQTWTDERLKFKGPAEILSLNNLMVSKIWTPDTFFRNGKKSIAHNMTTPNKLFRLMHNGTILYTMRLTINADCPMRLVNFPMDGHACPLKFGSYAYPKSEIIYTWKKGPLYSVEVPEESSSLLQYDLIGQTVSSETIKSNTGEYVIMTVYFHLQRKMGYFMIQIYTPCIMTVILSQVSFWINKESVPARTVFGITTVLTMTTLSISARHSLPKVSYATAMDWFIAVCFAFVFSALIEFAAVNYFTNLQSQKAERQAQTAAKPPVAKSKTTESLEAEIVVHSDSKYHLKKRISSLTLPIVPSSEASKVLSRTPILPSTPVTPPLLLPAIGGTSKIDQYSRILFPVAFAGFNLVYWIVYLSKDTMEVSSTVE

| SMILES | tested on | test | system | conditions | scale | quantity | value |
| --- | --- | --- | --- | --- | --- | --- | --- |
| C=CCNC1=C2C[C@@H](C)C[C@H](OC)[C@H](O)[C@@H](C)/C=C(\C)[C@H](OC(N)=O)[C@@H](OC)/C=C\C=C(/C)C(=O)NC(=CC1=O)C2=O | NanoBiT HiBiT/LgBiT luciferase | inhibitor, HiBiT luminescence counterscreen | conditioned medium only | 5 µM, 24 h | relative to: vehicle | luminescence signal reduction | -5.02% |
| O=C(O)C1CCCNC1 (stereo not shown) | Sodium- and chloride-dependent taurine transporter (SLC6A6, Homo sapiens, UniProt P31641, Y138A) | binding, microscale thermophoresis |  | 977 nM, room temperature, added: 50 nM labelled protein | higher = more binding | normalised MST signal | 0.219 |
| CC[C@H](C)[C@@H]1NC(=O)[C@H]([C@@H](C)CC)NC(=O)[C@@H](Cc2ccc(O)cc2)NC(=O)CSC[C@@H](C(N)=O)NC(=O)[C@H](CCCNC(=N)N)NC(=O)[C@H](CCCCN)NC(=O)[C@H](CC(C)C)NC(=O)[C@H](CO)NC(=O)[C@H](CO)NC(=O)[C@H](CC(C)C)NC(=O)[C@H](Cc2ccccc2)NC(=O)[C@H](C(C)C)NC(=O)CNC(=O)[C@H](CC(C)C)NC(=O)[C@@H]2CCCN2C(=O)[C@H]([C@@H](C)O)NC(=O)[C@H](CC(=O)O)NC1=O | Vacuolar protein sorting-associated protein 29 (VPS29, Homo sapiens, UniProt Q9UBQ0) | binding, ITC |  | 25 °C, protein alone |  | -TΔS | 4.6 ± 0.3 kcal/mol |
| CC(=O)N[C@H]1[C@H]([C@H](O)[C@H](O)CO)O[C@@](OC[C@H]2O[C@@H](Oc3ccc([N+](=O)[O-])cc3)[C@H](O)[C@@H](O)[C@H]2O)(C(=O)O)C[C@@H]1O | Sialidase-2 (Homo sapiens, UniProt Q9Y3R4) | substrate |  | 0.3 mM, 30 min, pH 5.0, 37 °C |  | sialic acid release | 22% |
| CC[C@@H]1[C@H](F)C(=O)N[C@@H]1COc1nccc2cc(C(N)=O)c(OC)cc12 | Dual specificity mitogen-activated protein kinase kinase 6 (MAP2K6, Homo sapiens, UniProt P52564) | ATP-site probe binding, ActivX profiling | THP-1 cell lysate | 0.01 mM, Lys1 site |  | inhibition | 10.3% |
| O=C(O)c1ccc(Nc2ncc3c(n2)-c2ccc(Cl)cc2C(c2c(F)cccc2F)=NC3)cc1 | BRK(h) | kinase activity |  | 1 µM |  | remaining activity | 104% |
| Cc1ncsc1-c1ccc(CNC(=O)[C@@H]2C[C@@H](O)CN2C(=O)[C@@H](NC(=O)CCCCCCCCCCCC(=O)NCCCCC#Cc2cccc(-c3nn(-c4nc(C(=O)O)cs4)c(CC4CC4)c3Cc3ccc(S(N)(=O)=O)cc3)c2)C(C)(C)C)cc1 | L-lactate dehydrogenase B chain (LDHB, Homo sapiens, UniProt P07195) | degrader, western blot | PANC-1 | 48 h |  | Dmax | 86 ± 7.7% |
| CN1CCN(C(=O)c2ccc([C@H]3[C@@H](F)[C@@H](F)C[C@@H](F)[C@H]3F)cc2)CC1=O |  | hepatocyte stability | cryopreserved rat hepatocytes | 1 µM |  | hepatic clearance | 10 mL/min/kg |
| Cc1ncsc1-c1ccc(CNC(=O)[C@@H]2C[C@@H](O)CN2C(=O)[C@@H](NC(=O)C2(F)CC2)C(C)(C)C)c(OCCOCCOCCN2CCN(c3cc(-c4ccccc4O)nnc3N)CC2)c1 | SWI/SNF-related matrix-associated actin-dependent regulator of chromatin subfamily A member 4, bromodomain (SMARCA4, Homo sapiens, UniProt P51532) | ternary complex binding, TR-FRET competition |  | added: VCB complex |  | cooperativity factor alpha | 13 |
| CC[C@H](C)[C@H](NC(=O)[C@H](Cc1ccccc1)NC(=O)[C@H](CCC(=O)O)NC(=O)[C@H](CCCNC(=N)N)NC(=O)[C@H](C)NC(=O)[C@H](C)NC(=O)[C@H](CCC(N)=O)NC(=O)[C@H](CCC(=O)O)NC(=O)[C@H](CCC(=O)O)NC(=O)[C@H](CC(C)C)NC(=O)[C@H](Cc1ccc(O)cc1)NC(=O)[C@H](CO)NC(=O)[C@H](CO)NC(=O)[C@H](CCCCNc1c(NCCCCCN(O)C(=O)CCC(=O)NCCCCCN(O)C(=O)CCC(=O)NCCCCCN(O)C(C)=O)c(=O)c1=O)NC(=O)[C@H](CC(=O)O)NC(=O)[C@H](CO)NC(=O)[C@@H](NC(=O)[C@H](Cc1ccccc1)NC(=O)[C@@H](NC(=O)CNC(=O)[C@H](CCC(=O)O)NC(=O)[C@H](C)NC(=O)CCc1cnc[nH]1)[C@@H](C)O)[C@@H](C)O)C(=O)N[C@@H](C)C(=O)N[C@@H](Cc1c[nH]c2ccccc12)C(=O)N[C@@H](CC(C)C)C(=O)N[C@H](C(=O)N[C@@H](CCCNC(=N)N)C(=O)NCC(=O)N[C@@H](CCCNC(=N)N)C(=O)N[C@@H](CCCCNC(=O)COCCOCCNC(=O)COCCOCCNC(=O)CC[C@H](NC(=O)CCCCCCCCCCCCCCCCC(=O)O)C(=O)O)C(=O)NCC(=O)NCC(=O)N[C@@H](CO)C(=O)N[C@@H](CCCCNc1c(NCCCCCN(O)C(=O)CCC(=O)NCCCCCN(O)C(=O)CCC(=O)NCCCCCN(O)C(C)=O)c(=O)c1=O)C(=O)O)C(C)C | GLP1R | agonist, CRE luciferase reporter | BHK cells | metal-free DFO conjugate, added: 0% HSA | relative to: parent peptide | fold potency loss | 10.5 |
| O=c1nc(SCc2cc(F)cc(C(F)(F)F)c2)nc(SCc2ccc3nc(Cl)ccc3c2)[nH]1 | TOP2A | ATPase activity |  | 15.6 µM, added: ATP 0.1 mM |  | ATP hydrolysis rate | 0.788 µM/min and 0.778 µM/min |
| COc1ccccc1-c1n[nH]c2nc(N[C@H]3CC[C@H](NS(=O)(=O)CCCOCCOCCNC(=O)OC(C)(C)C)CC3)ncc12 | Leishmania donovani STE11 (LinJ.24.1500) | resin binding competition | promastigote lysate | 10 µM | relative to: DMSO | log2 SILAC ratio heavy/light | 2.81 |
| OC[C@H]1OC(O)[C@H](O)[C@@H](O)[C@@H]1O (stereo partly shown) | Hexokinase-3 (HK3, Homo sapiens, UniProt P52790, D264A/R265A) | substrate inhibition |  | mutant D264A/R265A, partial substrate inhibition model, added: ATP 20 mM |  | kcat | 49 ± 24 s⁻¹ |
| O=C(COP(=O)(O)O)[C@@H](O)[C@H](O)[C@H](O)COP(=O)(O)O | GMP synthase [glutamine-hydrolyzing] (Homo sapiens, UniProt P49915) | thermal proteome profiling, item: GMPS | HepG2 cell lysate | concentration not given, 57 over 37 °C, mean | relative to: compound over control | thermal stability ratio | 0.488 |
| C[C@@H]1CCN(C(=O)CCl)[C@@H](C(N)=O)C1 | human NEDD9 full length | LC-MS/MS peptide mapping |  | 50 µM, 18 h |  | cysteine occupancy | 24.3% |
| O=c1nc(SCc2cc(F)cc(C(F)(F)F)c2)nc(SCc2csc3ccc(Cl)cc23)[nH]1 | TOP2A | decatenation |  | 0.12 µM |  | mean decatenated DNA | 0% |
| NCC[C@H](O)C(=O)N[C@@H]1C[C@H](N)[C@@H](O[C@H]2O[C@H](CN)[C@@H](O)[C@H](O)[C@H]2O)[C@H](O)[C@H]1O[C@H]1O[C@H](CO)[C@@H](O)[C@H](N)[C@H]1O | Albumin (ALB, Bos taurus, UniProt P02769) | binding, tryptophan fluorescence quenching |  | pH 7.4, 283-310 K |  | ΔH° | -78.7 kcal/mol |
| CCCCCCCC/C=C\CCCCCCCC(=O)NCCc1ccc(O)c(O)c1 | Transient receptor potential cation channel subfamily V member 1 (Trpv1, Mus musculus, UniProt Q704Y3, S513A) | ion current, agonist, whole-cell patch clamp |  |  | relative to: 3 mM 2-APB current | maximal open probability | 0.56 ± 0.06 |
| N#CCC(=O)Nc1ccc(C2CCCCC2)cc1 |  | liver microsome stability | rat liver microsomes | 1 µM |  | hepatic clearance | 51 mL/min/kg |
| COc1cccc(-n2nc3c4cc(Cl)ccc4[nH]cc-3c2=O)c1 | Gamma-aminobutyric acid receptor subunit alpha-6/beta-3, with delta subunit (Gabra6/Gabrb3, Rattus norvegicus, UniProt P30191+P63079) | ion current, modulator, two-electrode voltage clamp |  | 1 nM, α6β3δ receptor, added: GABA EC3-10 |  | efficacy | 103 ± 4.7% |
| CC[C@H](C)[C@H](NC(=O)[C@H](Cc1ccccc1)NC(=O)[C@H](CCC(=O)O)NC(=O)[C@H](CCCNC(=N)N)NC(=O)[C@H](C)NC(=O)[C@H](C)NC(=O)[C@H](CCC(N)=O)NC(=O)[C@H](CCC(=O)O)NC(=O)[C@H](CCC(=O)O)NC(=O)[C@H](CC(C)C)NC(=O)[C@H](Cc1ccc(O)cc1)NC(=O)[C@H](CO)NC(=O)[C@H](CO)NC(=O)[C@@H](NC(=O)[C@H](CC(=O)O)NC(=O)[C@H](CO)NC(=O)[C@@H](NC(=O)[C@H](Cc1ccccc1)NC(=O)[C@@H](NC(=O)CNC(=O)[C@H](CCC(=O)O)NC(=O)[C@H](C)NC(=O)CCc1cnc[nH]1)[C@@H](C)O)[C@@H](C)O)C(C)C)C(=O)N[C@@H](C)C(=O)N[C@@H](Cc1c[nH]c2ccccc12)C(=O)N[C@@H](CC(C)C)C(=O)N[C@H](C(=O)N[C@@H](CCCCNC(=O)COCCOCCNC(=O)COCCOCCNC(=O)CC[C@H](NC(=O)CCCCCCCCCCCCCCCCC(=O)O)C(=O)O)C(=O)NCC(=O)N[C@@H](CCCNC(=N)N)C(=O)N[C@@H](CCCCNc1c(NCCCCCN(O)C(=O)CCC(=O)NCCCCCN(O)C(=O)CCC(=O)NCCCCCN(O)C(C)=O)c(=O)c1=O)C(=O)NCC(=O)NCC(=O)N[C@@H](CO)C(=O)N[C@@H](CCCCNc1c(NCCCCCN(O)C(=O)CCC(=O)NCCCCCN(O)C(=O)CCC(=O)NCCCCCN(O)C(C)=O)c(=O)c1=O)C(=O)O)C(C)C | GLP1R | agonist, CRE luciferase reporter | BHK cells | metal-free DFO conjugate, added: 1% HSA | relative to: parent peptide | fold potency loss | 1.9 |
| O=C(Nc1cc(F)c(F)c(F)c1)c1ccc(F)c(S(=O)(=O)N2CCC(O)CC2)c1 | Capsid protein, residues 1-149 (C, Hepatitis B virus genotype D subtype ayw, UniProt P03146) | capsid assembly, size exclusion chromatography |  | 10 µM, overnight, added: 5 µM Cp149, 150 mM NaCl |  | capsid to dimer ratio | 0.3 |
